# Measured values pooled from the literature.
# Parts stem from different laboratories: compare values within a part only.
# Sequence of UniProt P07333 (whole entry, looked up): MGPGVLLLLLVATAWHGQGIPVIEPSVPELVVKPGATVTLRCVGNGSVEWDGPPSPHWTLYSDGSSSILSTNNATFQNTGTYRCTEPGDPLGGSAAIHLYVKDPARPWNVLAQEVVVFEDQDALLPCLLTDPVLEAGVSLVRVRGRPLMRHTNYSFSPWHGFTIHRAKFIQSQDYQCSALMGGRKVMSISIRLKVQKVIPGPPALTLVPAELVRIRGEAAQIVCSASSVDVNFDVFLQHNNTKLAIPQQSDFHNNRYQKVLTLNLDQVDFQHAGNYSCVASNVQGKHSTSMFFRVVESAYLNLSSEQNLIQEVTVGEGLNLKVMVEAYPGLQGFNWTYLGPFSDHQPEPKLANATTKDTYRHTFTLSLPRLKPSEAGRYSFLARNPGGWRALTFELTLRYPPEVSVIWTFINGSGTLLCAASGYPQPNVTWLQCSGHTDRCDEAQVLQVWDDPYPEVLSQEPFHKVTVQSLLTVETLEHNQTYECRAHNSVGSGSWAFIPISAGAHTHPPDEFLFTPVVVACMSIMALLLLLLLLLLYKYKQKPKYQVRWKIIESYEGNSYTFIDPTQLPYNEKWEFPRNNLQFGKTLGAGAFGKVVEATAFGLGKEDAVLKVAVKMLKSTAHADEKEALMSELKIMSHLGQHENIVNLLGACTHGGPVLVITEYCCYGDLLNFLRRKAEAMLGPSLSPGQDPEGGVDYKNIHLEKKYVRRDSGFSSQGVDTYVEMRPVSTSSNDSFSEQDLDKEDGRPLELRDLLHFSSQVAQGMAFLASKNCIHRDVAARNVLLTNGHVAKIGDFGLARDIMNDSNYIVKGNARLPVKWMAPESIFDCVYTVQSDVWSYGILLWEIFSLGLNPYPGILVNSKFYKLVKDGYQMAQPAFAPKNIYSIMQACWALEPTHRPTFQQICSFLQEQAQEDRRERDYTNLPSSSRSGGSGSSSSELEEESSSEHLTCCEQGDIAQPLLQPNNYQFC

# Sample 1
# Target: PABPC1L2, full length, GST fusion (mouse, UniProt A0ABA7IW68)
# Method: RNAcompete
# Form: RNA
# Medium: in vitro
# Concentration: 20 nM
# Setting: 7-mer, probes averaged, single round
# Baseline: mean of 7-mers
# Reading: higher = stronger binding
# Construct (chain): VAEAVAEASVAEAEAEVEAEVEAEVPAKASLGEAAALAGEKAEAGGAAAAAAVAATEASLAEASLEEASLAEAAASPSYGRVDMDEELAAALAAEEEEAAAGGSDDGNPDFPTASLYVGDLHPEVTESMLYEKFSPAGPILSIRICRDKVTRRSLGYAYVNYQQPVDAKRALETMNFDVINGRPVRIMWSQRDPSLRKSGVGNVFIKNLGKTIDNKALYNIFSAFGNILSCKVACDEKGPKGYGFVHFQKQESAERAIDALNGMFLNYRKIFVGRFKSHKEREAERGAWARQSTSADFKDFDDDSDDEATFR
Oligonucleotide,7-mer Z-score
GCACAGG,0.177
CACAUGU,-0.269
UUUAUAA,0.365
UCAUGCC,-0.403
CAUUCGU,-0.208
UAAGUAC,-0.115
AUCGGGC,0.0478
CGCCCGC,-0.34

# Sample 2
# Target: Centromere-binding protein 1, full length, His-tagged (CBF1, Saccharomyces cerevisiae, UniProt P17106, residues 1-351)
# Sequence of UniProt P17106 (whole entry, looked up): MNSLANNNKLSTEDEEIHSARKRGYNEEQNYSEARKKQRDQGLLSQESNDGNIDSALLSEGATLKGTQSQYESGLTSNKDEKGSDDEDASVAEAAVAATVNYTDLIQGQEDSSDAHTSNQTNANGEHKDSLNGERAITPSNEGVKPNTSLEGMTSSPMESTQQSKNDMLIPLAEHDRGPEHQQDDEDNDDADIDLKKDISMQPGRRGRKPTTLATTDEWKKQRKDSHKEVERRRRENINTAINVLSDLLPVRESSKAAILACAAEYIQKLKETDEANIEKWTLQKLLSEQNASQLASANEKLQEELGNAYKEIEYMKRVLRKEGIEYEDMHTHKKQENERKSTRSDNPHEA
# Method: competition protein-binding microarray
# Form: double-stranded DNA, one strand shown
# Medium: in vitro
# Concentration: 2 µM
# Setting: whole 60-bp probe, lowest competitor level
# Together with: Pho4 competitor, 0.05 µM
# Reading: higher = stronger binding
# Constant ends, left off below: … GTCTTGATTCGCTTGACGCTGCTG
Oligonucleotide,fluorescence intensity [a.u.]
AAAGCGGTAATTTGCCCAGTGGGTGCAGATATCTAT,66.1
GTCTTGTCTCATTGGTGTGTGGGTGTCCCCACTTCA,71.2
AAATTACTAAGTTGACCTGTGGGTGACGCCGTATGA,68.9
TCGCGAAGGCTAAGCCATGTGCTGTTACCCCTGCTG,72.4
AATATTTCGTCGAGTCACGTAAGTGCAAGGTAATAA,101
TACCACCACCAAGAGAATGTGTGAGCTGGAAACCTT,63.6
CGGGGTTAAGTTTGGGGGGTGGGTGGCTTGCAGCAG,140
AGGATCTCTTAGGAATTCGTGACGGGGTATCCCATT,55.7

# Other studies, line by line
Substance,target,test,system,conditions,scale,quantity,result
"PhoQ, residues 284 288 289 292 302 303 AANNSF","PhoP, residues 12 14 15 18 19 VQALL (Escherichia coli, UniProt P23836)","Sort-seq, refers to: YFP reporter",E. coli,"PhoQ-PhoP variant library, together with: 10 µM Mg2+","baseline: high Mg2+ state, higher = stronger signaling",fold induction,13.6
O=c1c(-c2ccc(F)cc2)c(-c2ccncc2)[nH]n1-c1ccc(Cl)cc1,"CSF1R (Homo sapiens, UniProt P07333)","enzyme activity, inhibitor",,0.5 µM,baseline: control,remaining activity,102%
